Measured values collected from several papers.
Compare with care: the assays were run in different laboratories.
Target: Serine/threonine-protein kinase Nek6 (NEK6, Homo sapiens, UniProt Q9HC98)

| SMILES | assay | setting | how to read | measurement | value |
| --- | --- | --- | --- | --- | --- |
| CCn1cc(C(=O)O)c(=O)c2c(N)c(F)c(NC3CCCCC3)cc21 | kinase activity | 0.1 µM, with: ATP at Km | – | inhibition | -15.6% |
| Cc1nc2c(F)cc(-c3nc(Nc4ccc(CNC(=O)CCCCCCC(=O)NO)cc4)ncc3F)cc2n1C(C)C | enzyme activity, inhibitor | 1 µM | – | inhibition | 30% |
| CCN1CCN(Cc2ccc(C(=O)Nc3ccc(C)c(NCc4cnc5[nH]ccc5c4OC)c3)cc2C(F)(F)F)CC1 | binding, competition with immobilised ligand | 1 µM | – | remaining binding | 95% |
| C=CC(=O)N1CCc2ccc(-n3c(=O)ccc4cnc5ccc(-c6cnn(C)c6)cc5c43)cc21 | KINOMEscan | 1 µM | relative to: DMSO control | remaining binding | 82% |
| NC(=O)C[C@H]1CCc2sc3ncnc(O[C@H]4CC[C@H](N5CCOCC5)CC4)c3c21 | enzyme activity, inhibitor | 10 µM | – | inhibition | -11% |
| COc1c(Cl)cccc1Nc1c(-c2ccncc2C#C[C@@]2(C)CCCN2C(=O)/C=C/CN(C)C)[nH]c2c1C(=O)NCC2 | binding, competition with immobilised ligand | 3 µM | – | remaining binding | 92% |
| CNC(=O)C1CCN(c2cc(C)c(F)cc2NC(=O)c2ccc(-c3cc(O)ccc3C)c(C)c2)CC1 | binding, competition with immobilised ligand | 1 µM | – | remaining binding | 100% |
| Cc1cccc(-c2ccc3nc(NC(=O)C4CCOCC4)nn3c2)c1 | enzyme activity, Dundee kinase panel | 10 µM | – | remaining activity | 83% |
| c1ccc2c(Nc3cc(C4CCC4)[nH]n3)nc(Nc3ccc4nc[nH]c4c3)nc2c1 | enzyme activity, inhibitor | 0.25 µM | – | remaining activity | 91% |
| Cc1ccc(-c2c(/C=C(\C#N)C(=O)NC(C)C)n(CCCO)c3ncnc(N)c23)cc1 | cell-free assay, competition with immobilised ligand | 1 µM | – | remaining binding | 82% |
| Cc1cnc2nc1Nc1cccc(c1)COC/C=C/COCc1cc(ccc1OCCN1CCOCC1)N2 | binding | 0.1 µM | – | remaining binding | 87% |
| CN1CCN(Cc2ccc(-c3ccc(CO[C@H]4CCC[C@@H]4NC(=O)c4cc(-c5cnn(C)c5)cnc4N)cc3)cc2)CC1 | enzyme activity, inhibitor | 0.1 µM | – | inhibition | 10% |
| Cc1cccc(-c2ccc3nc(NC(=O)C4CCCO4)nn3c2)c1 (stereo not shown) | enzyme activity, Dundee kinase panel | 10 µM | – | remaining activity | 84% |
| C=CC(=O)N1Cc2nc(-c3cc(-c4cc(Cl)cnc4Cl)c(F)cc3F)n(-c3ccncn3)c2C1 | cell-free assay, inhibitor | 1 µM | – | inhibition | 7.2% |
| Cc1cccc(O[C@H]2CCC[C@@H](C(C)CNCc3ccncc3)C2)c1 (relative stereo) | enzyme activity, inhibitor | 1 µM | – | inhibition | 2% |
| CNC1C[S+]2CC[S+]3CC[S+](C1)[Ru-4]321([N]=C=S)[n]2c3ccc(OC)cc3c3c4c(c5cc(F)c[n+]1c5c32)C(=O)NC4=O (stereo not shown) | KinomeScan | 0.1 µM | relative to: untreated | remaining binding | 88% |
| COc1cc(Nc2nccc(-c3cnn4nc(OC)ccc34)n2)cc(C(F)(F)F)c1 | binding, competition with immobilised ligand | 1 µM | – | remaining binding | 69% |
| C=CC(=O)Nc1cccc(-c2cnc3[nH]cc(C(=O)NC(C)(C)C)c3n2)c1 | enzyme activity, inhibitor | 0.1 µM | – | inhibition | 3% |
| O=C(Cc1ccc(OCc2ccccc2)cc1)NC1(C(=O)O)CCN(C(=O)c2ccc(-c3cccc(Cl)c3)cc2)CC1 | enzyme activity, inhibitor | 10 µM | – | activity vs control | 108% |

Repeated from above:
| SMILES | assay | setting | how to read | measurement | value |
| --- | --- | --- | --- | --- | --- |
| CNC(=O)C1CCN(c2cc(C)c(F)cc2NC(=O)c2ccc(-c3cc(O)ccc3C)c(C)c2)CC1 | binding, competition with immobilised ligand | 1 µM | – | remaining binding | 100% |
